# Experimental data from different studies.
# A part holds a random share of what one study measured. Substitutions count along the parent as printed.

# Study 1
# Target: RING finger protein unkempt homolog, zinc fingers 1-6, SBP tag (UNK, Homo sapiens, UniProt Q9C0B0, residues 30-357)
# Chain of UniProt Q9C0B0 (30-357, looked up): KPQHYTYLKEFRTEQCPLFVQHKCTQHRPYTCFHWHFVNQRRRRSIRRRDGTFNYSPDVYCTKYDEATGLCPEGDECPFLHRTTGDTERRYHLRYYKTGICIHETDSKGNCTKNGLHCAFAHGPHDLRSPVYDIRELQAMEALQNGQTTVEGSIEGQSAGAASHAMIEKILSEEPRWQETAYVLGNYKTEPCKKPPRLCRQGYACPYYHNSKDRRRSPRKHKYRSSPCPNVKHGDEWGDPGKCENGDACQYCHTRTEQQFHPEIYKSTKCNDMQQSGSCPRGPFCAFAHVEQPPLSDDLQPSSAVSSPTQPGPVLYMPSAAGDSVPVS
# Technique: RNA Bind-n-Seq
# Molecule type: RNA
# Matrix: in vitro
# Tested at: 100 nM
# Notes: RNA with constant flanks, vertebrate orthologous sites, ends assumed
# Reference: input RNA pool
# Direction: higher = stronger binding
# Shared flanks, not repeated: GGGAGUUCUACAGUCCGACGAUC … CAACAGAGGAUUGAGCAUCA
Strand,bound/input enrichment
AAAUCUACUUCAUGCCUUGGACUCCAUACAGGACAGACACUUUGAUUGAGUACUCCUCCCUGGAUGACUUCCAAAAUGGCCGGCAAACCAUUACCUACAAGCUGCCUCACCGGGUGGAUG,0.39 ratio
GCUGUUAAUGCACUGUAUUCCAGGCAUCGUCUGAUUUUUAGUGUAAUCUAGGAGAUUUUAUAAUUUUAUUUUAAUGAAGUAUUGAUUGAUGCAAAGUUGUUAGCAGUCUGUAGUCUUUUA,1.19 ratio
UGCAUAAUGCUGUUCUUACCAAAAGCAGACGCAAGUGAUCAAAUUCUUCAAUAGUAUUUCCCACCUAUCCUCCCGUUCUGGUCCACCAGUGCUUUCAACUGUUAGAACUCUUGGUUUUUC,0.974 ratio
AAAUAUACUUCAUGCCAUGGACCCCAUAUCGCACCGAUACUUUGAUAGAAUAUGCUUCCUUAGAGGACUUCCAAAACGGACGCCAGCAAACAACAUAUAAACUCCCAAAUCGAGUGGACG,1.12 ratio
GUAGUUUGUUUUUAAUUUCAAGCAAAAAAUCUUAUUGUACUUGAAUGUGUCCUGUUUUGUUAGCACACCUAGACUUGCUGUAACUGUACUCAUGUCCCAGUAUGUACGUUCUUUCUAUGA,1.02 ratio
AAAUUUAUUUCAUGCCAUGGACCCCAUAUCGUACGGACACCUUGAUAGAAUAUGCUUCUUUGGAGGACUUCCAAAACAGCCGCCAAACGACAACAUAUAAACUCCCCAAUCGAGUGGAUG,0.724 ratio
GAACCUAAACUUAUAGCAAAAGAGCCAAGCAGUAGCAGUUUUUGUAAAUGUAAAAAUAAUUAGAUCCAGACUUUGUUUCCUUCAAUUUCAAAAAUAAAAAAUACCUCAGUGCUAUGUUUU,1.04 ratio
AUGACAAUGAAAAGAGCCAAGCAGUAGCAUUUUGUUUUUUUUUAUAAAUGUAAAAAUUAGAUUCACUUUGUUUCCUAUUCAGUUUUAAAAAUAAAAAUACCUCAGUGCUGUGUUUCCCAG,0.622 ratio

# Study 2
# Target: RNA binding protein fox-1 homolog 2, RRM domain, GST-SBP tag (RBFOX2, Homo sapiens, UniProt O43251-10, residues 100-194)
# Technique: RNA Bind-n-Seq
# Molecule type: RNA
# Matrix: in vitro
# Tested at: 365 nM
# Notes: natural RNA segment, single round, ends assumed
# Reference: no-protein control
# Direction: higher = stronger binding
# Shared flanks, not repeated: GGGAGUUCUACAGUCCGACGAUC … UGGAAUUCUCGGGUGCCAA
# Target sequence (chain): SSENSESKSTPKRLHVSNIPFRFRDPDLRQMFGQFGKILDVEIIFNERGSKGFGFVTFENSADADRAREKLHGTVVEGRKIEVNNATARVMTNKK
Strand,RBNS enrichment (R)
CACAGUGUGAACCAACUCAGACUUUGAGAGAAAAAGAAUGCAGGAGUGGAAUAACCAAGUCAAAAACCAUGUCAAAACUAUCCUCUGGGGGGUGCUGAGGGUGCUAUGGA,4.11
UUGCACAAUGGUAUAACACGGCAACACGUUGCCUUCUUCAGAAUCCUGGAAAUCGACACACUGAACAGUGCACUUUUAGUUCACUGCUAAACAAAGCACACUUUUCAGGA,0.271
UCUACAUGUCUGCUUGAGAUAUUUCCUCAGCCUGAAAGUUUCCCCAACCAUCUGCCAGAGAACUCCUAUGCAUCCCUUAGAACCCUGCUCAGACACCAUUACUUUUGUGA,20.1
CAAAACCUUAAAAAAGAGAGAGAAAAAUAAACAAUCUUUGAAGAAUUUCUGAAACUGUUUACAAGGAAUUUUGAAAAACAGGGAUGUUUAAAUGAUGCCGGCUCUGUUUU,0.709
AAAGCAAAACUCUUCUAAGUCCCACUCGUGAAUGGCAAUUAGAGAAAGGACUGACAGUGGCGGUGCCCCAUAGGAUGUCAUAUUGAGGCCCAAACUUGAUUGGAGAAUUU,1.91
UCGAGGCUGUUCUUCAAGAAUUAAAAUUGAAGUGAAAAUUUAAACAAAAAUAAAAGAAUUUAGCAAACCCAUGUGUCUGGUUGCUUGAACUACACCCUCAGAGCAAGAGG,1.12
UUUUAGGCAACCACUCUCAAAAACAGCUUUAGAAUUUAUGCCCAGUUUUCUUGCAUUGAAAGAUAACUGAGUAAUAACCUGUAACUAUUUUUAAAUGGCAUGAAAUUAGG,2.26
CUUUUCUAACAGGCUCAGUCCUUACGAGCUUCUCAACACUGGUUCUUCUGUUAAGAGUGACUGUUCAUUCAGGGAGCUGAGAAUUCUGGCACAGAUCUUUGUCCCAAGCC,0.226

# Study 3
# Target: CCNB2, cyclin fold, Cln2 fusion (human)
# Technique: yeast growth competition, sequencing
# Matrix: yeast
# Notes: weak parent motif
# Reference: not given
# Direction: higher = stronger binding
# Starting sequence: E2F1 docking peptide (human); PPVKRRLDLETDH; partner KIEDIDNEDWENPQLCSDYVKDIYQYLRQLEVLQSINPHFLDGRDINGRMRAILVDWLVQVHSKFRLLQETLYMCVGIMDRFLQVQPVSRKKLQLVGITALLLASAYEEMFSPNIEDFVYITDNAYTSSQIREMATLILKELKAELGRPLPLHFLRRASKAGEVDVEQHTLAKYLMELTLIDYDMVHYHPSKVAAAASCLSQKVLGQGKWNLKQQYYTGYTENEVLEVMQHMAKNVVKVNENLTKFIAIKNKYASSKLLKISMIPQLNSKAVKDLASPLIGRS
Variant,normalised enrichment score
PPVGRRLDLETDH [K4G],0.198
PPVKPRLDLETDH [R5P],-0.735
PPCKRRLDLETDH [V3C],0.5
PPVKRRLDLETVH [D12V],0.474
PPEKRRLDLETDH [V3E],0.31
PPVKRRLDLITDH [E10I],0.895
PPVKRRLDLETDS [H13S],0.594
PPVKRRLDLEEDH [T11E],0.564

# Single results of other studies
Molecule,target,assay,test system,setting,scale,quantity,value
"PhoQ, residues 284 288 289 292 302 303 ALSMDL","PhoP, residues 12 14 15 18 19 IQSYL (Escherichia coli, UniProt P23836)","Sort-seq, refers to: YFP reporter",E. coli,"PhoQ-PhoP variant library, with: 10 µM Mg2+","reference: high Mg2+ state, higher = stronger signaling",fold induction,7.49

# A few entries again (study 2):
Strand,RBNS enrichment (R)
CACAGUGUGAACCAACUCAGACUUUGAGAGAAAAAGAAUGCAGGAGUGGAAUAACCAAGUCAAAAACCAUGUCAAAACUAUCCUCUGGGGGGUGCUGAGGGUGCUAUGGA,4.11
UUGCACAAUGGUAUAACACGGCAACACGUUGCCUUCUUCAGAAUCCUGGAAAUCGACACACUGAACAGUGCACUUUUAGUUCACUGCUAAACAAAGCACACUUUUCAGGA,0.271
UCUACAUGUCUGCUUGAGAUAUUUCCUCAGCCUGAAAGUUUCCCCAACCAUCUGCCAGAGAACUCCUAUGCAUCCCUUAGAACCCUGCUCAGACACCAUUACUUUUGUGA,20.1
CAAAACCUUAAAAAAGAGAGAGAAAAAUAAACAAUCUUUGAAGAAUUUCUGAAACUGUUUACAAGGAAUUUUGAAAAACAGGGAUGUUUAAAUGAUGCCGGCUCUGUUUU,0.709
